{"data": "Results pooled from the literature", "note": "Numbers after ± are the reported error."}
{"SMILES": "CNC(=O)c1ccc(-c2cnn3ccc(C(=O)N(C)c4ccc(Cl)c(C(=O)OC)c4)cc23)cc1", "test system": "neonatal calf, uninfected healthy, plasma", "conditions": "oral, 10 mg/kg", "Cmax": "59 nM"}
{"SMILES": "CC(C)c1nc(N(C)S(C)(=O)=O)nc(-c2ccc(F)cc2)c1/C=C/[C@@H](O)C[C@@H](O)CC(=O)O", "test system": "healthy volunteers, plasma", "conditions": "oral, dose not given, given alone", "Cmax": "2.33 ng/mL"}
{"SMILES": "Cc1cc(C(C#N)c2ccc(Cl)cc2)c(Cl)cc1NC(=O)c1cc(I)cc(I)c1O (centres unmarked)", "test system": "parasitized Corriedale lambs, plasma", "conditions": "oral, 10 mg/kg, with: moxidectin 0.2 mg/kg oral", "Cmax": "78100 ± 21300 ng/mL"}
{"SMILES": "Cc1ncc2n1-c1ccc(Cl)cc1C(c1ccccc1F)=NC2", "test system": "healthy volunteers, plasma", "conditions": "oral, 8 mg, CYP3A probe, geometric mean, with: Echinacea purpurea for 28 days", "Cmax": "38 ng/mL"}
{"SMILES": "CN1CC(=O)N2[C@H](c3ccc4c(c3)OCO4)c3[nH]c4ccccc4c3C[C@@H]2C1=O", "test system": "healthy adults, plasma", "conditions": "oral, 40 mg, fasted, free combination, with: macitentan 10 mg", "Cmax": "610 ng/mL"}
{"SMILES": "C[C@@H](Oc1cc(-c2cnn(C3CCNCC3)c2)cnc1N)c1c(Cl)ccc(F)c1Cl", "test system": "patients", "conditions": "215 mg/m^2, day 1, with dasatinib, median", "Cmax": "279 ng/mL"}
{"SMILES": "Cc1ncc2n1-c1ccc(Cl)cc1C(c1ccccc1F)=NC2", "test system": "healthy men, plasma", "conditions": "oral, 7.5 mg, day 26, arithmetic mean, with: 14 days post amenamevir", "Cmax": "39.5 ng/mL"}
{"SMILES": "CNCCC[C@@]1(c2ccc(F)cc2)OCc2cc(C#N)ccc21", "test system": "healthy volunteers, plasma", "conditions": "dose not given, given alone", "Cmax": "1.51 ng/mL"}
{"SMILES": "CC[C@H](C)[C@H](NC(=O)[C@@H](N)CCCNC(=N)N)C(=O)N[C@H](C(=O)N1CCC[C@H]1C(=O)N[C@@H](C)C(N)=O)C(C)C", "test system": "healthy volunteers, both sexes, plasma", "conditions": "intravenous infusion, 1.5 mg/kg daily, day 7, multiple ascending dose", "Cmax": "5540 ± 3720 ng/mL"}
{"SMILES": "CCCCCOc1ccc(-c2cc(-c3ccc(C(=O)N[C@H]4C[C@@H](O)[C@@H](O)NC(=O)[C@@H]5[C@@H](O)[C@@H](C)CN5C(=O)[C@H]([C@H](O)CC(N)=O)NC(=O)[C@H]([C@H](O)[C@@H](O)c5ccc(O)c(OS(=O)(=O)O)c5)NC(=O)[C@@H]5C[C@@H](O)CN5C(=O)[C@H]([C@@H](C)O)NC4=O)cc3)no2)cc1", "test system": "young infants under 1000 g, plasma", "conditions": "intravenous infusion, 10 mg/kg/day, day 4, median, 1 h infusion, repeat dosing", "Cmax": "24900 ng/mL"}
{"SMILES": "O=C1c2c(c3c4ccc(O)cc4n([C@@H]4O[C@H](CO)[C@@H](O)[C@H](O)[C@H]4O)c3c3[nH]c4cc(O)ccc4c23)C(=O)N1NC(CO)CO", "test system": "cancer patients, plasma", "conditions": "intravenous infusion, 6 mg/m2, 1 h infusion, cycle 2, with: 5-FU/leucovorin", "Cmax": "59.2 ± 27.3 ng/mL"}
{"SMILES": "C[C@H]1O[C@@H](O[C@H]2[C@@H](O)C[C@H](O[C@H]3[C@@H](O)C[C@H](O[C@H]4CC[C@@]5(C)[C@H](CC[C@@H]6[C@@H]5C[C@@H](O)[C@]5(C)[C@@H](C7=CC(=O)OC7)CC[C@]65O)C4)O[C@@H]3C)O[C@@H]2C)C[C@H](O)[C@@H]1O", "test system": "healthy volunteers, plasma", "conditions": "oral, dose not given, with: 2D regimen", "Cmax": "2.16 ng/mL"}
{"SMILES": "Cc1ncc2n1-c1ccc(Cl)cc1C(c1ccccc1F)=NC2", "test system": "healthy volunteers, plasma", "conditions": "oral, 7.5 mg single dose, day 1, geometric mean, alone", "Cmax": "36.8 ng/mL"}
{"SMILES": "CC[C@H](C)CCCCC(=O)N[C@@H](CCN)C(=O)N[C@H](C(=O)N[C@@H](CCN)C(=O)N[C@H]1CCNC(=O)[C@H]([C@@H](C)O)NC(=O)[C@H](CCN)NC(=O)[C@H](CCN)NC(=O)[C@H](CC(C)C)NC(=O)[C@@H](Cc2ccccc2)NC(=O)[C@H](CCN)NC1=O)[C@@H](C)O", "test": "HPLC-MS/MS", "test system": "patients with acute kidney injury (RIFLE Injury), plasma", "conditions": "intravenous, dose not given, total concentration", "Cmax": "4040 ± 1590 ng/mL"}
{"SMILES": "O=c1[nH]c(Cc2ccccn2)nc2c1cnn2C1CCOCC1", "test system": "healthy men, extensive metabolizers, plasma", "conditions": "oral, 350 mg single dose, tablet, geometric mean", "Cmax": "5540 nM"}
{"SMILES": "Cc1cc(=O)[nH]c2c1NC(=O)c1cccnc1N2C1CC1", "test system": "olive baboon (Papio anubis), non-pregnant, serum", "conditions": "oral, 400 mg nevirapine, tablet", "Cmax": "2.27 ± 0.23 ng/mL"}
{"SMILES": "CC[C@H](C)C(=O)O[C@H]1C[C@H](O)C=C2C=C[C@H](C)[C@H](CC[C@@H](O)C[C@@H](O)CC(=O)O)[C@H]21", "test system": "healthy volunteers, plasma", "conditions": "oral, dose not given, given alone", "Cmax": "18.5 ng/mL"}
{"SMILES": "CCCCCOc1ccc(-c2cc(-c3ccc(C(=O)N[C@H]4C[C@@H](O)[C@@H](O)NC(=O)[C@@H]5[C@@H](O)[C@@H](C)CN5C(=O)[C@H]([C@H](O)CC(N)=O)NC(=O)[C@H]([C@H](O)[C@@H](O)c5ccc(O)c(OS(=O)(=O)O)c5)NC(=O)[C@@H]5C[C@@H](O)CN5C(=O)[C@H]([C@@H](C)O)NC4=O)cc3)no2)cc1", "test system": "preterm neonates below 1000 g, plasma", "conditions": "intravenous, 15 mg/kg/day, repeated dosing, mean", "Cmax": "38600 ng/mL"}
{"SMILES": "CN(C)CCC[C@@]1(c2ccc(F)cc2)OCc2cc(C#N)ccc21", "test system": "healthy volunteers, plasma", "conditions": "oral, dose not given, with: 2D regimen", "Cmax": "8.86 ng/mL"}
{"SMILES": "C=CCNC1=C2C[C@@H](C)C[C@H](OC)[C@H](O)[C@@H](C)/C=C(\\C)[C@H](OC(N)=O)[C@@H](OC)/C=C\\C=C(/C)C(=O)NC(=CC1=O)C2=O", "test system": "patients, plasma", "conditions": "intravenous, 150 mg/m2, cycle 1 day 4, with: bortezomib 0.7 mg/m2", "Cmax": "2590 ± 562 ng/mL"}
